Measured values from different studies.
Each numbered part is a random draw from the data of one study; scales do not carry over between parts. Substitutions count along the parent as printed.

Set 1
Target: TEF, bZIP domain (human)
Method: DHFR protein complementation
Matrix: yeast
Notes: single substitutions, most at no-binding floor
Reference: wild-type JUN-FOS pair
Direction: higher = stronger binding
Endpoint: binding fitness
Starting sequence: JUN, bZIP domain (human); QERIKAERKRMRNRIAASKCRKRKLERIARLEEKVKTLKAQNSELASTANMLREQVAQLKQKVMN; partner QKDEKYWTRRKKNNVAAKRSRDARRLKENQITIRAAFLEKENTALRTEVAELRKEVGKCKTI
Variant = R30T; result = -1.4 natural log
Variant = M51R; result = -1.28 natural log
Variant = E33W; result = -1.5 natural log
Variant = I28Q; result = -1.48 natural log
Variant = E44W; result = -1.53 natural log
Variant = L52V; result = -1.51 natural log
Variant = I28G; result = -1.43 natural log
Variant = S43E; result = -1.37 natural log
Variant = E54H; result = -1.43 natural log
Variant = T37S; result = -1.49 natural log
Variant = A57E; result = -1.45 natural log
Variant = I28V; result = -1.51 natural log
Variant = A46Q; result = -1.52 natural log
Variant = T48H; result = -1.41 natural log
Variant = L45T; result = -1.52 natural log
Variant = A40Q; result = -1.23 natural log
Variant = V56Q; result = -1.56 natural log
Variant = A57L; result = -1.26 natural log

Set 2
Target: TAR DNA-binding protein 43, full length, His tag (TARDBP, Homo sapiens, UniProt Q13148, residues 1-414)
Method: RNA Bind-n-Seq
Form: RNA
Matrix: in vitro
Concentration: 20 nM
Notes: 6-mer, flanks averaged, single round
Together with: 150 mM LiCl
Reference: input library
Direction: higher = stronger binding
Endpoint: 6-mer enrichment (R)
Sequence = CGGACU; result = 1.07
Sequence = UUUCGC; result = 0.961
Sequence = UUUCGA; result = 0.909
Sequence = UCGCUU; result = 0.913
Sequence = GUUGGA; result = 1.12
Sequence = CGUUAC; result = 0.876
Sequence = UGACCU; result = 0.913
Sequence = ACAGCG; result = 0.887
Sequence = ACAGCA; result = 0.85
Sequence = GUGGCG; result = 1.28
Sequence = GCGUAG; result = 1.04

Set 3
Target: RING finger protein unkempt homolog, zinc fingers 1-6, GST-SBP tag (UNK, Homo sapiens, UniProt Q9C0B0, residues 30-357)
UniProt Q9C0B0, sequence (30-357, looked up): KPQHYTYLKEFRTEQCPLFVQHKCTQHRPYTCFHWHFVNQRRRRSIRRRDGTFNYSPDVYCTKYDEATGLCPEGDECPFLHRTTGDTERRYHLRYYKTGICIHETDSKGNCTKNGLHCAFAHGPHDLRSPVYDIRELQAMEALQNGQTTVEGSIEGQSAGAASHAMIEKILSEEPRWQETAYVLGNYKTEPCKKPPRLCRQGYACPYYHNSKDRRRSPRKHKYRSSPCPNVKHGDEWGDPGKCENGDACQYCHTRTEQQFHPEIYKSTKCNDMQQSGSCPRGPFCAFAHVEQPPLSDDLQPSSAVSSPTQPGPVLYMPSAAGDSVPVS
Method: RNA Bind-n-Seq
Form: RNA
Matrix: in vitro
Concentration: not given
Notes: RNA with constant flanks, human and mouse sites, ends assumed
Reference: input RNA pool
Direction: higher = stronger binding
Endpoint: bound/input enrichment
Constant ends, left off below: GGGAGUUCUACAGUCCGACGAUC … CAACAGAGGAUUGAGCAUCA
Sequence = UUUGGUUUAGUUUGGUUUUAUUUUCUUUAACUGAAAUGCAUGCACAAAAGGAGCUCAGGAGACAUUAGACCUGGUGAAAGGUGUGAGCUGACGUGGAUCACUUGAGGCUGUCAUUGCUGU; result = 1.09 ratio
Sequence = AUCAAGAGCUGGACGUUUUCCUCUCAGCACAGUAAGAAAGAUGACUUACUCCAUAAGUUGGACACCGGGUUUCGGCUGGACUCACUGCAUACCAUCCUGCAGCAGGAAGUCCUGCUGCAA; result = 0.132 ratio
Sequence = UGCAGCUGCUCCUGCCUCACUGUGAGGAAUGAAGAAAGAGGGGAAAAUGCGGGAAGACCCACACACACUACAAAAAUGGAGAGUAUCCAGGUCCUAGAGGAAUGCCAAAACCCCACUGCA; result = 0.367 ratio
Sequence = CUUGGACAGGAGAAGGCACUUGAACAGAUACUGGAAUAUGAACUACUUCUUAUACAGCAACUUAAUUUCCACCUUAUUGUCCACAAUCCUUACAGACCAUUUGAGGGCUUCCUCAUCGAC; result = 0.11 ratio
Sequence = UUCACCACUCCUGGGUGCAUGAUUGAGGGUGAAGCAUCCACCAGCACUUCAAGGGGUCCAUAGUAUUUUUUUUUUUGCUGCCUCAAAGUCCCCAAAGCCUUCGAGCAGAAGUGGCAGUAG; result = 67.8 ratio
Sequence = GACCUUGAGCAGAAUGAAACAUUAGAAAGCAUCAUGAGUACUGCUGAGAGUGAAGAAGAAUUGAAAAGAUAUUUUUAUUACUUGGAGGGAUCCAAAGAUGCUCUUCUUUGCGGUUUCAGC; result = 0.588 ratio
Sequence = GGAAUCGUCACUCGUGUCUCUGAAGUCAAACCCAAGAUGGUGGUGGCCACUUACACUUGUGACCAGUGUGGGGCAGAGACCUACCAGCCGAUCCAGUCUCCCACUUUCAUGCCUCUGAUC; result = 0.0435 ratio
Sequence = GGUUAUGGUAAAAGAGGUCAAAUGAAACCCUCGAUUGAAUCCUAUUCUGAAGAUGAUGAAAGUAAGUUUUGCAGUUAUGGUCAAUACCCAGCCGACCUAGCCCAUAAAAUACAUAGUGCA; result = 1.26 ratio
Sequence = CAAGGUGUGCCGAAGGAGAAGCUCACUGGCACAAUUCAGAAUGACAUCCUAAAGGAGUUUAUGGUCAGAAAUACUUAUAUUUUUCCCCCAGAGCCAUCGAUGAAAAUUAUUGCUGACAUU; result = 0.183 ratio
Sequence = CAGAAACUUUGUGAAAUUGAAAGGAUACAUUUCUUUCUGAGUAAGAAAAAACCAGAUGAACUUAGAAAUCUACACAAACUGCUUUACAACAGGCCGGGCACAGUGUCCUCGUUGAAGAAG; result = 0.22 ratio
Sequence = GACCACAUUGCUGGAGAUGAGGAUCACACAGAUGGAGUAGUAGCUUGUGCUGCUGGACUAAUAGGGGACUUAUGUACAGCAUUUGGGAAGGAUGUACUGAAAUUAGUAGAAGCUAGGCCA; result = 0.788 ratio

Set 4
Target: RNA binding protein fox-1 homolog 2, RRM domain, GST-SBP tag (RBFOX2, Homo sapiens, UniProt O43251-10, residues 100-194)
Method: RNA Bind-n-Seq
Form: RNA
Matrix: in vitro
Concentration: 365 nM
Notes: natural RNA segment, single round, ends assumed
Reference: no-protein control
Direction: higher = stronger binding
Endpoint: RBNS enrichment (R)
Constant ends, left off below: GGGAGUUCUACAGUCCGACGAUC … UGGAAUUCUCGGGUGCCAA
Sequence = GUAGGACAAAGUUGUCACAGGUUUUUGUUGUUGUUUUUAUUGCCCCCAAAAUUACAUGUUAAUUUCCAUUUAUAUCAGGGAUUCUAUUUACUUGAAGACUGUGAAGUUGC; result = 2.18
Sequence = AGGUGUUACCCAGAGAGGUGCCUCUGCUGUGCUUCCUGCCUCCAUCACUUUCCUAGGGCCUCCGUGAGGGCUGAGAACAGCUCUGCUCUGCUCCUGUAUUAUUAACUUGC; result = 0.485
Sequence = AGGCACGCUCCUGUCCUCCUCAUUGCCCAGCAGUAGGGAGGGGCAGGGGUAAGGGGACCUGAGGAUAAAGGGUGGGGAAACAGGGUCCCCUGAGGCCUGUGGGGGCUGCA; result = 1.15
Sequence = UGAGCCAGAACCACAAGAGCCAGUUCCUCAAGAGGCUUUUGUCCCCAAGCCUGAGGACAGAGCCGCAUCAAGUCAUCAUCAGCAAGUCAGCCAGCCUGUUUGGUCUGCUU; result = 0.443
Sequence = UGAUGGCUUCUUAUGUGCAUUCAACAGUUAAAAAUUCCUAAUCGAUUCUGUCAUCAUGCCCCCUCCCCACUUGUUCCUGCAGUUAUUAAAUAUUAACCAGGUUAGUGUUG; result = 0.601
Sequence = AGGCGGUGAGCCAGGCUGCAGGAAGGAGCCUCCCUCAGGGUUUCGGGAACCAGACCUCUCACCGGAAAGACCGAUUAACCAUGUCACCACCACGCCAUCAUCGUCACCGU; result = 0.431
Sequence = AACCUUUAAACUUAAAAUUGAUUACAUUGAGCCUAUUCAGAAAAAAAAUUAUAUAGGUUCUGAUGAAAGCUUCAUAAUUUCACCCUGUGACUAUCCUGAAAAGAAAUAAU; result = 0.834
Sequence = AAAAACAUCACAAAGUAGGUCAUUCCAUCACCACCCUUGUCUCUCUACACAUUUUGCCUUUGGGGAUCUGGUUGGGGUUUUGGGUUUUUUGUUGUUGUUGUUUAUUUGUU; result = 0.538
Sequence = AGAUUUCAAGCUGUGUUGGUGUUGGGACCAGCAGAAGGCAAACGUCCAGCCAACACACAGGACUGUAAGAGGACUCUGAGCUACGUGCCCUGUGAAGACCCCCAGGCUUU; result = 0.472
Sequence = AACAGACCAACUGCAUGUGUGUCUGUAGGUCUCAGUUUCCACAUUCAUACAGUGAGGGUGUUAAGUCAGGUAGCUGGAGACUUCCCAUCGCCUCUGACACUUUUGGAGGU; result = 7.23
Sequence = AUUUAUUAUGAAUCAUUUUCCCCUAAUCUGCAUAAAUGAAUUAGAACUGAUUUUAAUAAAAAUAUUCUGUGUAAAAAGUACUCAGAAAAACAUCUAAAGCUGUUGGAGAA; result = 0.823
Sequence = AAUAAAUAAAAGUUAUAUCAGACAGUACUGACAGACAAUAAAGAAACCCCCCCCCCAGGGUGCCCAGGUUAAGUCCCAUGUUCUGUGCUCCUGUUUGGUUUUGGGAGGCA; result = 1.2

Set 5
Target: CCNB3, cyclin fold, Cln2 fusion (human)
Method: yeast growth competition, sequencing
Matrix: yeast
Notes: weak parent motif
Reference: not given
Direction: higher = stronger binding
Endpoint: normalised enrichment score
Starting sequence: NPAT docking peptide (human); PCHRRVLCFDSTT; partner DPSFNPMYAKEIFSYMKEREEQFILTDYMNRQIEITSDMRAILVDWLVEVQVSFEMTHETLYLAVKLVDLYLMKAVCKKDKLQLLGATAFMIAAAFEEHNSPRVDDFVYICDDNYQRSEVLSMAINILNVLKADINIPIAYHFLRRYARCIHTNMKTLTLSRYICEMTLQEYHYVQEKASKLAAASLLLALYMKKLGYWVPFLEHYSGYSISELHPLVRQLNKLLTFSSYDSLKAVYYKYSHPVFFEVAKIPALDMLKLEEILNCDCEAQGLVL
Variant = PCHRRVLCFASTT [D10A]; result = 0.304
Variant = PCHRRVLCLDSTT [F9L]; result = 0.0276
Variant = PCHRRVLCFDSAT [T12A]; result = 0.288
Variant = PCHRRVLAFDSTT [C8A]; result = -0.0209
Variant = PCHRAVLCFDSTT [R5A]; result = 0.153
Variant = PCHRRALCFDSTT [V6A]; result = 0.18
Variant = PCHRRVLCFDSTA [T13A]; result = 0.0227

Set 6
Target: Histone acetyltransferase KAT6A, both winged helices, GST fusion (KAT6A, Homo sapiens, UniProt Q92794, residues 1-181)
Method: protein binding microarray
Form: double-stranded DNA, one strand shown
Matrix: in vitro
Concentration: not given
Notes: 8-mer, flanks averaged, mean of 2 arrays, mostly near background
Reference: not given
Direction: higher = stronger binding
Endpoint: E-score
Target sequence (chain): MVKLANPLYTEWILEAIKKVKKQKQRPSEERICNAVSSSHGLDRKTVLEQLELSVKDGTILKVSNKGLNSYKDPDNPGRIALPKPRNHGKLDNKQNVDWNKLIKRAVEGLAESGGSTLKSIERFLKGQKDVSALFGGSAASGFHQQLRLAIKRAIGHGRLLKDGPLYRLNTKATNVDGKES
Sequence = GCGCAGTA; result = 0.251
Sequence = GTGAAGTA; result = -0.0702
Sequence = AACCAATG; result = -0.3
Sequence = CCACTCTC; result = -0.0982
Sequence = ATAACCCG; result = 0.22
Sequence = GAGTAATC; result = -0.0439
Sequence = CTTTGCAA; result = -0.115
Sequence = ACTCCCGA; result = -0.0439
Sequence = CCCATAGA; result = -0.286
Sequence = CAATTGGC; result = -0.0533
Sequence = AGCTACTA; result = -0.0748
Sequence = AGAGCAAC; result = -0.149
Sequence = GACGTGCA; result = -0.0994
Sequence = AACTCTCA; result = -0.0857
Sequence = TAATACGA; result = -0.071
Sequence = CGTAAAAG; result = 0.15

Single results of other studies
Substance = PhoQ, residues 284 288 289 292 302 303 TLASMF; target = PhoP, residues 12 14 15 18 19 VQALL (Escherichia coli, UniProt P23836); test = Sort-seq, measured: YFP reporter; system = E. coli; setting = PhoQ-PhoP variant library, together with: 10 µM Mg2+; scale = reference: high Mg2+ state, higher = stronger signaling; endpoint = fold induction; result = 5.7

Repeated from above (set 4):
Sequence = UGAUGGCUUCUUAUGUGCAUUCAACAGUUAAAAAUUCCUAAUCGAUUCUGUCAUCAUGCCCCCUCCCCACUUGUUCCUGCAGUUAUUAAAUAUUAACCAGGUUAGUGUUG; result = 0.601
Sequence = AGGCGGUGAGCCAGGCUGCAGGAAGGAGCCUCCCUCAGGGUUUCGGGAACCAGACCUCUCACCGGAAAGACCGAUUAACCAUGUCACCACCACGCCAUCAUCGUCACCGU; result = 0.431
Sequence = AACCUUUAAACUUAAAAUUGAUUACAUUGAGCCUAUUCAGAAAAAAAAUUAUAUAGGUUCUGAUGAAAGCUUCAUAAUUUCACCCUGUGACUAUCCUGAAAAGAAAUAAU; result = 0.834
Sequence = AAAAACAUCACAAAGUAGGUCAUUCCAUCACCACCCUUGUCUCUCUACACAUUUUGCCUUUGGGGAUCUGGUUGGGGUUUUGGGUUUUUUGUUGUUGUUGUUUAUUUGUU; result = 0.538
Sequence = AGAUUUCAAGCUGUGUUGGUGUUGGGACCAGCAGAAGGCAAACGUCCAGCCAACACACAGGACUGUAAGAGGACUCUGAGCUACGUGCCCUGUGAAGACCCCCAGGCUUU; result = 0.472
Sequence = AACAGACCAACUGCAUGUGUGUCUGUAGGUCUCAGUUUCCACAUUCAUACAGUGAGGGUGUUAAGUCAGGUAGCUGGAGACUUCCCAUCGCCUCUGACACUUUUGGAGGU; result = 7.23
